# Measurements of several laboratories.
# Protocols differ between the studies behind these lines.
# Organism: Staphylococcus aureus
SMILES,test,system,setting,MIC
CC[C@H]1OC(=O)[C@H](C)[C@@H](OC(=O)Cc2ccc(C(F)(F)F)cc2)[C@H](C)[C@@H](O[C@@H]2O[C@H](C)C[C@H](N(C)C)[C@H]2O)[C@](C)(OC)C[C@@H](C)C(=O)[C@H](C)[C@@H](O)[C@]1(C)O,,ATCC 43300 MRSA,,64 µg/mL
Cc1c(CN(C)C(=O)/C=C/c2cnc3c(c2)CC(N)C(=O)N3)oc2ccccc12 (centres unmarked),"microbial growth, broth dilution",ATCC29213,,0.03 µg/mL
CCCCCCCCn1cc[n+](CCCCCCOc2cc(OCCCCCC[n+]3ccn(CCCCCCCC)c3)cc(OCCCCCC[n+]3ccn(CCCCCCCC)c3)c2)c1.[Br-].[Br-].[Br-],,SH1000 MSSA,,1 µM
CC1C=CC=CC(C)C2C=CC3CC(C)(O)C(Cl)C(C)C3C2C(=O)C(Cl)(Cl)C(=O)C(C)C(=O)O1 (centres unmarked),,MRSA clinical isolate,resistant OXA/SXT,0.05 µg/mL
CCCCCCCCCCCC[N+](C)(C)CCCCCCOc1cc(OCCCCCC[N+](C)(C)CCCCCCCCCCCC)cc(OCCCCCC[N+](C)(C)CCCCCCCCCCCC)c1.[Br-].[Br-].[Br-],,CA-MRSA USA300-0114,,4 µM
CC[C@H]1OC(=O)[C@H](C)[C@@H](OC(=O)c2ccc(N)cc2)[C@H](C)[C@@H](O[C@@H]2O[C@H](C)C[C@H](N(C)C)[C@H]2O)[C@](C)(OC)C[C@@H](C)C(=O)[C@H](C)[C@@H](O)[C@]1(C)O,,BAA-977,,> 256 µg/mL
CCCCCCCCCCn1cc[n+](CCCCCCOc2cc(OCCCCCC[n+]3ccn(CCCCCCCCCC)c3)cc(OCCCCCC[n+]3ccn(CCCCCCCCCC)c3)c2)c1.[Br-].[Br-].[Br-],,HA-MRSA ATCC 33591,,2 µM
CC[C@H]1OC(=O)[C@H](C)[C@@H](OC(=O)Cc2cccc(Cl)c2)[C@H](C)[C@@H](O[C@@H]2O[C@H](C)C[C@H](N(C)C)[C@H]2O)[C@](C)(OC)C[C@@H](C)C(=O)[C@H](C)[C@@H](O)[C@]1(C)O,,ATCC 43300 MRSA,,> 64 µg/mL
Oc1c(Br)cc(Br)c2nc3cc(C(F)(F)F)ccc3nc12,,129 MRSA clinical isolate,,0.05 µM
O=[N+]([O-])c1c(Br)c(Cl)c2cccnc2c1O,"microbial growth, broth dilution",ATCC29213,,2 µg/mL
CCCCCCCCCC[N+](C)(C)CCCCOc1cc(OCCCC[N+](C)(C)CCCCCCCCCC)cc(OCCCC[N+](C)(C)CCCCCCCCCC)c1.[Br-].[Br-].[Br-],,SH1000 MSSA,,0.5 µM
CCCCCCCC(=O)Oc1c(C)c(OC)c2c(c1C)OC(=O)[C@@H](CCCCCC)[C@]2(O)/C=C/c1ccccc1 (racemic),"microbial growth, broth dilution",ATCC25923,,5000 µg/mL
CC[C@H](C)[C@H](NC(=O)[C@@H](CCCNC(=N)N)NC(=O)[C@H](CCCNC(=N)N)NC(=O)[C@@H]1CCCN1C(=O)[C@@H]1CCCN1C(=O)[C@H](CCCNC(=N)N)NC(=O)[C@@H]1CCCN1C(=O)[C@H](CCCNC(=N)N)NC(=O)[C@@H]1CCCN1C(=O)[C@H](CCCNC(=N)N)NC(=O)[C@H](Cc1ccc(O)cc1)NC(=O)[C@@H]1CCCN1C(=O)[C@@H]1CCCN1C(=O)[C@H](CCCCN)NC(=O)[C@H](CC(=O)O)NC(=O)[C@@H](N)C(C)C)C(=O)N[C@@H](Cc1ccc(O)cc1)C(=O)N[C@@H](CC(N)=O)C(=O)N[C@H](CCCNC(=N)N)C(N)=O,broth microdilution,DSM 6247,"18 h, 37 °C, 25% MHB2",64 µg/mL
CN[C@H](CC(C)C)C(=O)N[C@H]1C(=O)N[C@@H](CC(N)=O)C(=O)N[C@H]2C(=O)N[C@H]3C(=O)N[C@H](C(=O)N[C@H](C(=O)O)c4cc(O)cc(O)c4-c4cc3ccc4O)[C@H](O)c3ccc(c(Cl)c3)Oc3cc2cc(c3O[C@@H]2O[C@H](CO)[C@@H](O)[C@H](O)[C@H]2O[C@H]2C[C@](C)(NCc3ccc(OCc4cn(CC(=O)N[C@H](C(=O)N[C@@H](CCN)C(=O)N[C@H]5CCNC(=O)[C@H]([C@@H](C)O)NC(=O)[C@H](CCN)NC(=O)[C@H](CCN)NC(=O)[C@H](CC(C)C)NC(=O)[C@@H](CC(C)C)NC(=O)[C@H](CCN)NC5=O)[C@@H](C)O)nn4)c(OC)c3)[C@H](O)[C@H](C)O2)Oc2ccc(cc2Cl)[C@H]1O,broth microdilution,"MRSA USA300, cation-adjusted Mueller-Hinton broth","20 to 24 h, 37 °C, 0.002% polysorbate 80",0.25 µg/mL
C/C(=C\c1ccc(O)cc1)C(=O)Nc1ccc(C(=O)N[C@@H](Cc2c[nH]nn2)C(=O)Nc2ccc(C(=O)Nc3ccc(C(=O)Nc4ccc(C(=O)O)cc4)cc3)cc2)cc1,broth microdilution,ciprofloxacin-resistant,,32 µg/mL
CCC(CC)c1cc(CCN2CCCN(S(=O)(=O)c3ccc4ccccc4c3)CC2)nc(-c2ccccn2)n1,"microbial growth, broth dilution",ATCC29213,,> 16 µg/mL
CCCCCC[N+](C)(C)CCCCCCOc1cc(OCCCCCC[N+](C)(C)CCCCCC)cc(OCCCCCC[N+](C)(C)CCCCCC)c1.[Br-].[Br-].[Br-],,HA-MRSA ATCC 33591,,2 µM
COc1ccc(/N=N/C(=S)N2CCCC2)cc1,"microbial growth, broth dilution",ATCCBAA44 MRSA,24 h,> 50 µM
"Oc1cccc2c1[nH]c1c(C3=CC4(O)CCC=CCCCCN5CCC3C3(CC6C=CCCCCN6C43)C5)nccc12 (single isomer, unassigned; (+))",growth,ATCC 43300 methicillin-resistant,,20 µg/mL
CC[C@H]1OC(=O)[C@H](C)[C@@H](OC(=O)Cc2ccc(N(C)C)cc2)[C@H](C)[C@@H](O[C@@H]2O[C@H](C)C[C@H](N(C)C)[C@H]2O)[C@](C)(OC)C[C@@H](C)C(=O)[C@H](C)[C@@H](O)[C@]1(C)O,,ATCC 43300 MRSA,,> 256 µg/mL
COc1c(NC(=O)c2ccc(NC(=O)c3ccc(NC(=O)[C@H](Cc4c[nH]nn4)NC(=O)c4ccc(NC(=O)/C(C)=C/c5ccc(O)cc5)cc4)cc3)c(OC)c2O)ccc(C(=O)O)c1O,broth microdilution,ciprofloxacin-sensitive,,2 µg/mL
CC[C@H]1OC(=O)[C@H](C)[C@@H](OC(=O)Cc2ccccc2[N+](=O)[O-])[C@H](C)[C@@H](O[C@@H]2O[C@H](C)C[C@H](N(C)C)[C@H]2O)[C@](C)(OC)C[C@@H](C)C(=O)[C@H](C)[C@@H](O)[C@]1(C)O,,DSM 20231 MSSA,,1 µg/mL
CCCC/C=C/C(=O)N[C@@H](Cc1cc(F)cc(F)c1)C(=O)N[C@H]1COC(=O)[C@@H]2CCCN2C(=O)[C@H](C)NC(=O)[C@@H]2C[C@@H](C(C)C)CCN2C(=O)[C@@H]2CCCN2C1=O,"microbial growth, broth dilution",,,1.16 µg/mL

# Some of these lines once more:
SMILES,test,system,setting,MIC
Oc1c(Br)cc(Br)c2nc3cc(C(F)(F)F)ccc3nc12,,129 MRSA clinical isolate,,0.05 µM
CCCCCCCCCC[N+](C)(C)CCCCOc1cc(OCCCC[N+](C)(C)CCCCCCCCCC)cc(OCCCC[N+](C)(C)CCCCCCCCCC)c1.[Br-].[Br-].[Br-],,SH1000 MSSA,,0.5 µM
Cc1c(CN(C)C(=O)/C=C/c2cnc3c(c2)CC(N)C(=O)N3)oc2ccccc12 (centres unmarked),"microbial growth, broth dilution",ATCC29213,,0.03 µg/mL
